Measured values collected from several papers.
Each line is one published result; not all experiments were run side by side.
T1: PDHA1/PDHB 30-390 E232A on β (Homo sapiens); chain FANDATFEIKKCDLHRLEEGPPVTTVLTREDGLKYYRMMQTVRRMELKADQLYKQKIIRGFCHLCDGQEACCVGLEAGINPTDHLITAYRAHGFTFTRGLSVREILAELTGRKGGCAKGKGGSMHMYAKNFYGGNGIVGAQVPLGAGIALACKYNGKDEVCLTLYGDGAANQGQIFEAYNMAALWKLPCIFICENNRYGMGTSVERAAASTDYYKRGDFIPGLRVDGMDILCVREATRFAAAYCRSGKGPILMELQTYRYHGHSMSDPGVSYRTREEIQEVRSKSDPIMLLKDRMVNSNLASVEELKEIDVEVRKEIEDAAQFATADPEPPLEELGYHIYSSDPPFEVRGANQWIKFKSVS; chain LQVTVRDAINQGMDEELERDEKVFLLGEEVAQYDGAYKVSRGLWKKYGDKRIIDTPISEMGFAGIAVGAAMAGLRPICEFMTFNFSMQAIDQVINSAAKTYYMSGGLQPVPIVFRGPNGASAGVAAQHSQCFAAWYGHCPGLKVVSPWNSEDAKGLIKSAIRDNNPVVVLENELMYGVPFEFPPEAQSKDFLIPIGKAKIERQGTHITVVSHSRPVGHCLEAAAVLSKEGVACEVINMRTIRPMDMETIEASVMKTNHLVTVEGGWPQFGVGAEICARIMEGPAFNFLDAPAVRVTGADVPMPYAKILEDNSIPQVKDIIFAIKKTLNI
B1: DLAT 214-416 (Homo sapiens, UniProt P10515); sequence looked up; chain SYPPHMQVLLPALSPTMTMGTVQRWEKKVGEKLSEGDLLAEIETDKATIGFEVQEEGYLAKILVPEGTRDVPLGTPLCIIVEKEADISAFADYRPTEVTDLKPQVPPPTPPPVAAVPPTPQPLAPTPSAPCPATPAGPKGRVFVSPLAKKLAVEKGIDLTQVKGTGPDGRITKKDIDSFVPSKVAPAPAAVVPPTGPGMAPVP
B2: PEX15 1-327 (Saccharomyces cerevisiae, UniProt Q08215); sequence looked up; chain MAASEIMNNLPMHSLDSSLRDLLNDDLFIESDESTKSVNDQRSEVFQECVNLFIKRDIKDCLEKMSEVGFIDITVFKSNPMILDLFVSACDIMPSFTKLGLTLQSEILNIFTLDTPQCIETRKIILGDLSKLLVINKFFRCCIKVIQFNLTDHTEQEEKTLELESIMSDFIFVYITKMRTTIDVVGLQELIEIFIFQVKVKLHHKKPSPNMYWALCKTLPKLSPTLKGLYLSKDVSIEDAILNSIDNKIQKDKAKSKGKQRGVKQKIHHFHEPMLHNSSEEQVKVEDAFNQRTSTDSRLQSTGTAPRKKNNDITVLAGSFWAVLKHH
B3: fbcF 9-187 (Rhodobacter sphaeroides, UniProt Q02762); chain GTRRDFLYYATAGAGAVATGAAVWPLINQMNPSADVQALASIFVDVSSVEPGVQLTVKFLGKPIFIRRRTEADIELGRSVQLGQLVDTNARNANIDAGAEATDQNRTLDEAGEWLVMWGVCTHLGCVPIGGVSGDFGGWFCPCHGSHYDSAGRIRKGPAPENLPIPLAKFIDETTIQLG
B4: mel-26 (Caenorhabditis elegans, UniProt Q94420); sequence looked up; chain MEPRIDGGVFIGGIGNSGNEMCSNGVPALGVSSQTEIKVEKVQHTWTVKNFSHCYQEYLENFVYLQRGDEQLTWSIKIYPKGNGENNKDFVFLCLNRVINNNVKAGKIGFKSQFKLRTAENKDIEMRIHPNPSHSDYVSYIKRDVLFPQIMPRDMIIVNVEIDVAVETITTTNEPIQFEPTNSEQQLIEDYQRLFSQELLCDFAINVNGKIIRAHKAVLAARSPVFNAMLTHQDTDEAKSSMMYINDMDYDVIYEMVYYIYCGRCNKDITDMATALLIAADKYRLEELKSHCEKYLVENINIENACSLLIIGDLYSAPKLRKRAVTYILARPKNVTGTPGWEDILKGHPNLITDIFSQIDRQSSTGATSSVSNLPGVPMDIPGITGNIVPPPSGL
B5: GET1 21-104 (Saccharomyces cerevisiae, UniProt P53192); Alexa594 label; sequence looked up; chain TNKYHEKWISKFAPGNELSKKYLAKVKERHELKEFNNSISAQDNYAKWTKNNRKLDSLDKEINNLKDEIQSENKAFQAHLHKLR
B6: UGT1A9 (Homo sapiens, UniProt O60656); chain GKLLVVPMDGSHWFTMRSVVEKLILRGHEVVVVMPEVSWQLGRSLNCTVKTYSTSYTLEDLDREFKAFAHAQWKAQVRSIYSLLMGSYNDIFDLFFSNCRSLFKDKKLVEYLKESSFDAVFLDPFDNCGLIVAKYFSLPSVVFARGILCHYLEEGAQCPAPLSYVPRILLGFSDAMTFKERVRNHIMHLEEHLLCHRFFKNALEIASEILQTPVTEYDLYSHTSIWLLRTDFVLDYPKPVMPNMIFIGGINCHQGKPLPMEFEAYINASGEHGIVVFSLGSMVSEIPEKKAMAIADALGKIPQTVLWRYTGTRPSNLANNTILVKWLPQNDLLGHPMTRAFITHAGSHGVYESICNGVPMVMMPLFGDQMDNAKRMETKGAGVTLNVLEMTSEDLENALKAVINDKSYKENIMRLSSLHKDRPVEPLDLAVFWVEFVMRHKGAPHLRPAAHDLTWYQYHSLDVIGFLLAVVLTVAFITFKCCAYGYRKCLGKKGRVKKAHKSKTH
B7: Osm 24-206 (Mus musculus, UniProt P53347); chain ANRGCSNSSSQLLSQLQNQANLTGNTESLLEPYIRLQNLNTPDLRAACTQHSVAFPSEDTLRQLSKPHFLSTVYTTLDRVLYQLDALRQKFLKTPAFPKLDSARHNILGIRNNVFCMARLLNHSLEIPEPTQTDSGASRSTTTPDVFNTKIGSCGFLWGYHRFMGSVGRVFREWDDGSTRSRR
UniProt P11021, sequence (whole entry, looked up): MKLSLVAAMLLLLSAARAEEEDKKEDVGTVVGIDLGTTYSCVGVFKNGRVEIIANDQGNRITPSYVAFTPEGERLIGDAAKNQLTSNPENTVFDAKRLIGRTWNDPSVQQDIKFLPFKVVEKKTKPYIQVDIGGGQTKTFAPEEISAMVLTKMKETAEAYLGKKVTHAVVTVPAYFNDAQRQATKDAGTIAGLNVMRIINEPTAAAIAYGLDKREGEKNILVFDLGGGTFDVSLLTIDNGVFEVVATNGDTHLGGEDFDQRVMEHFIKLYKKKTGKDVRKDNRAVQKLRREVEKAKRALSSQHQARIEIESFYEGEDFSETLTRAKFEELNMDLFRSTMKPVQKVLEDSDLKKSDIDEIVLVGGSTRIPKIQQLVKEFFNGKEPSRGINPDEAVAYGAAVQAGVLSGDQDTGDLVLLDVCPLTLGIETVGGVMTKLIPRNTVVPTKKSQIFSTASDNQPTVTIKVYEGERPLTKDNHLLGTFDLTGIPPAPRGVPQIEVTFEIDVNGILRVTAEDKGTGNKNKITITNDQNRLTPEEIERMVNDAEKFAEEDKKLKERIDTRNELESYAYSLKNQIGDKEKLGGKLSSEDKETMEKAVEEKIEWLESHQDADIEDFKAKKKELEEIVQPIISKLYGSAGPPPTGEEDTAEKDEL
UniProt Q13188, sequence (whole entry, looked up): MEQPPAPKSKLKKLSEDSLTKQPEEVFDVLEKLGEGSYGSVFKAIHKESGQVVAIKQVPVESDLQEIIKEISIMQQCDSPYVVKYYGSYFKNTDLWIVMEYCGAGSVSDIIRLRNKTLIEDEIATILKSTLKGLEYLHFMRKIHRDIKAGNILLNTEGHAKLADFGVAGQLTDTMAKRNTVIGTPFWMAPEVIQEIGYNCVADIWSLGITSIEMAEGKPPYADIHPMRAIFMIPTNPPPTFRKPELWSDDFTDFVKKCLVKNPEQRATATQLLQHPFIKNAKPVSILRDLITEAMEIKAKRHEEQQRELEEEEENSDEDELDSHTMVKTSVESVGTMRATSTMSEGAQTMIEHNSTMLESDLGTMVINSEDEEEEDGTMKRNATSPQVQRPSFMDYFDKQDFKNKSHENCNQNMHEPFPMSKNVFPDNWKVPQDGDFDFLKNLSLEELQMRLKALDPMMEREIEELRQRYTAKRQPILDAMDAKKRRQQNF
UniProt P46020, sequence (whole entry, looked up): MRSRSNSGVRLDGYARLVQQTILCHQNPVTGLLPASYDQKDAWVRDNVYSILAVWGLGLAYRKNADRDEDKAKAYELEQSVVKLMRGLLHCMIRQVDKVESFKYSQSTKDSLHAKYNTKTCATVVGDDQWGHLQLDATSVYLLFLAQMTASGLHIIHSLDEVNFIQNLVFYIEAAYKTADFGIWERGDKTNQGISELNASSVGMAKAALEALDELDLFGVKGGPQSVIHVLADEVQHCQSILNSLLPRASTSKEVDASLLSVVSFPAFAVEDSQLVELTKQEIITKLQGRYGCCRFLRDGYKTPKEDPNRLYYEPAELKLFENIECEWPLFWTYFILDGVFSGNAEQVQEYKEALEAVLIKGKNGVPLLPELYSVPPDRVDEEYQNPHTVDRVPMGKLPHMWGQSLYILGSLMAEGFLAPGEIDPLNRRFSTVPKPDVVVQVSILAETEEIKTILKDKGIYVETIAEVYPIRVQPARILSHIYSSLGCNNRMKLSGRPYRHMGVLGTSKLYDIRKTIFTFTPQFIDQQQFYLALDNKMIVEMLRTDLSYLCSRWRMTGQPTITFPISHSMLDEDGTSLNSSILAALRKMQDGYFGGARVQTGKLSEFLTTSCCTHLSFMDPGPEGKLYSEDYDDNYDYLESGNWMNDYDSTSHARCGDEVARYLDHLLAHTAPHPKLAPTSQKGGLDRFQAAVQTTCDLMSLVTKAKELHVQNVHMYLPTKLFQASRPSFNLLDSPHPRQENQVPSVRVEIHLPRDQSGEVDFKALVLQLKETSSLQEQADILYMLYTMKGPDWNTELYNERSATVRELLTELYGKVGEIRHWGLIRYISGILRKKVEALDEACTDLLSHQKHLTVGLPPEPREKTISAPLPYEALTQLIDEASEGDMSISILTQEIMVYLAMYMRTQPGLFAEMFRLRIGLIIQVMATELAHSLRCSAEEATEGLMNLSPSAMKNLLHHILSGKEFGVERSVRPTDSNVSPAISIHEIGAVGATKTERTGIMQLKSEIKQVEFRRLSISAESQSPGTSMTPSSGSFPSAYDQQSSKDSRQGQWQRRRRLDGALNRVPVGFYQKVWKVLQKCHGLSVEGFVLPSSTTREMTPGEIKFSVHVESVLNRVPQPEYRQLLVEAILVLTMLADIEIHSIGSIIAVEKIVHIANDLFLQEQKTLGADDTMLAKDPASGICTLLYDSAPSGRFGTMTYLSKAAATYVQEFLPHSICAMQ
UniProt Q12154, sequence (whole entry, unmodified, looked up): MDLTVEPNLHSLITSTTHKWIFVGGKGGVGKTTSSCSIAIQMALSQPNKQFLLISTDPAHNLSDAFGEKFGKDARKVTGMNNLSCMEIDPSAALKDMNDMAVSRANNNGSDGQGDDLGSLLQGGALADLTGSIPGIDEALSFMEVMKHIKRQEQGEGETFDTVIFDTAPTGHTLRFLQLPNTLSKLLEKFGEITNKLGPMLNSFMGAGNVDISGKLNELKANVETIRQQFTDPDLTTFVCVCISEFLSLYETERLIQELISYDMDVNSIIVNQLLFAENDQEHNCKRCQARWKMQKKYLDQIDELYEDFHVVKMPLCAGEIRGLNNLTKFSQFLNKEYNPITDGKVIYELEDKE
UniProt O70458, sequence (whole entry, unmodified, looked up): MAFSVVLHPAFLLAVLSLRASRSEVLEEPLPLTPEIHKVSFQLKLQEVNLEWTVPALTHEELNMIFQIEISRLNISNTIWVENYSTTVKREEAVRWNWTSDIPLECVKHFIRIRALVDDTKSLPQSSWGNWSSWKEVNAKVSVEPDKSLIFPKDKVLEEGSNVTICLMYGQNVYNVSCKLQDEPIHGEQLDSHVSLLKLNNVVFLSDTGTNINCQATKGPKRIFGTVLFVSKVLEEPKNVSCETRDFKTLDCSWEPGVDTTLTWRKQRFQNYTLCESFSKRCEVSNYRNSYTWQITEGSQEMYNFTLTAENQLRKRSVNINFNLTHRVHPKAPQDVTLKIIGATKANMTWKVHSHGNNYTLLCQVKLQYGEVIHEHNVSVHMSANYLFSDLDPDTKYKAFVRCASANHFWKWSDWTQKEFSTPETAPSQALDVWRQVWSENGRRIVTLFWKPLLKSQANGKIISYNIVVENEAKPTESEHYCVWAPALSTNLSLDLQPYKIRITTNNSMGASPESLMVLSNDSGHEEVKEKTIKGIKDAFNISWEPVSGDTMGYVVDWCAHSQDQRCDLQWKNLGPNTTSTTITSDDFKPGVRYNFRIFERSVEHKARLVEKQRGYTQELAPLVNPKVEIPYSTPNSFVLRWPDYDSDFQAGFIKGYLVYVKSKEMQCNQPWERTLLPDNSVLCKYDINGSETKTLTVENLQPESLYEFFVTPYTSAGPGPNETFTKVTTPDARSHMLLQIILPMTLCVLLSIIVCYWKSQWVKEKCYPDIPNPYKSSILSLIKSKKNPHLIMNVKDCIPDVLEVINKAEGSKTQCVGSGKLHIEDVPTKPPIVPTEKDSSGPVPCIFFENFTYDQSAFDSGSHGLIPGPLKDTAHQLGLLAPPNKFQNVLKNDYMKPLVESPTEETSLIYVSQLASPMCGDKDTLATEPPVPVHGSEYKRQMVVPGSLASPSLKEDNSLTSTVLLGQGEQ
UniProt P11217, sequence (whole entry, looked up): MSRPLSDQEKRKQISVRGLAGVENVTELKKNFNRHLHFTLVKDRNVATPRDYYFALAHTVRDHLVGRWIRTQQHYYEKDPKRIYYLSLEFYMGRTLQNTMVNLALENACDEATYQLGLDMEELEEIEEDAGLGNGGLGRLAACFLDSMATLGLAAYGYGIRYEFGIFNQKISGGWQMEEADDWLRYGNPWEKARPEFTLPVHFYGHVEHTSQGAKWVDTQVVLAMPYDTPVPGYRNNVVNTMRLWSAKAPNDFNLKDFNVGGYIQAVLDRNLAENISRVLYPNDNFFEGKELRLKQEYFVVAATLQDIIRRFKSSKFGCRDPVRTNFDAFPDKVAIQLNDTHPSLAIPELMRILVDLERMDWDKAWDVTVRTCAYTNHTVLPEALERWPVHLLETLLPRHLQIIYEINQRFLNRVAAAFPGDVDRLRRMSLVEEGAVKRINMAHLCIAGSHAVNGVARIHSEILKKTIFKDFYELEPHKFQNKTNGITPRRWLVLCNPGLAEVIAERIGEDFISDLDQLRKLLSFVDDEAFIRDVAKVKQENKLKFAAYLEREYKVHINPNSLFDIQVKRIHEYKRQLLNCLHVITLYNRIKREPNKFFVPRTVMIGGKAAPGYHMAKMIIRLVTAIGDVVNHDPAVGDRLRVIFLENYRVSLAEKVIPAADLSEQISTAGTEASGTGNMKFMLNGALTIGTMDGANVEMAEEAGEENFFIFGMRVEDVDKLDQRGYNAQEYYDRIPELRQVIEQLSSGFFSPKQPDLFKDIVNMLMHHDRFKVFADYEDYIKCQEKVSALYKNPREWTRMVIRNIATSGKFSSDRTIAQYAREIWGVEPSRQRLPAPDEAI
UniProt Q02760, sequence (whole entry, looked up): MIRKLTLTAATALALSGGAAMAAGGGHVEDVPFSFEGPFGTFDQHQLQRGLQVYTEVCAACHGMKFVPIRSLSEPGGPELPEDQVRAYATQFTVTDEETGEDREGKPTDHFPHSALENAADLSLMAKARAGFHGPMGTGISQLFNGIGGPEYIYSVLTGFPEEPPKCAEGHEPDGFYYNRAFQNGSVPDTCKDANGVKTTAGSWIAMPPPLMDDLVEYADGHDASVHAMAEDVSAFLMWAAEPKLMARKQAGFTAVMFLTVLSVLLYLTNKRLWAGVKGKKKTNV

| Substance | target or system | assay | setting | quantity | result |
| --- | --- | --- | --- | --- | --- |
| HSPA5 (Homo sapiens, UniProt P11021) | HSP90B1 E103A (Homo sapiens, UniProt P14625) | pull-down | – | binding | binds |
| B1 (DLAT 214-416) | T1, PDHA1/PDHB 30-390 E232A on β (Homo sapiens) | SPR | – | binding | binds |
| B2 (PEX15 1-327) | PEX1/PEX6 complex E798Q/E832Q (Saccharomyces cerevisiae) | co-IP | – | binding | binds |
| B3 (fbcF 9-187) | petC cytochrome c1 (Rhodobacter sphaeroides, UniProt Q02760) | X-ray crystallography | – | binding | binds |
| PYGM (Homo sapiens, UniProt P11217) | PHKA1, phosphorylated incl. pS1018 (Homo sapiens, UniProt P46020) | cross-linking | – | binding | binds |
| EVEWDAFSIPELQNFLTILEKEEQDKIQQVQKKYDKFRQKLEEALRES (RASSF5 366-413 (Homo sapiens, UniProt Q8WWW0); sequence looked up) | STK3 9-491, pT180 (Homo sapiens, UniProt Q13188) | SEC | – | binding | binds |
| B4 (mel-26) | mei-1/mei-2 S137A, phosphorylated by MBK-2 (Caenorhabditis elegans) | dot blot | 4 °C, native | binding | binds |
| MGSNKSKNKDASQRRRSLLPETG (SRC 1-18 P8N (Homo sapiens, UniProt P12931)) | SRC fragment, N-terminal TAMRA label (Homo sapiens) | pull-down | – | binding | binds |
| B5 (GET1 21-104) | GET3 D57N, Alexa488 label (Saccharomyces cerevisiae, UniProt Q12154) | FRET | with: nucleotides | binding | binds |
| B6 (UGT1A9) | CCOC(=O)c1ccc(O)cc1 | steady-state kinetics | pH 7.4, 37 °C | Vmax/Km | 41 µL/min/mg |
| B7 (Osm 24-206) | Osmr 24-738 (Mus musculus, UniProt O70458) | cryo-EM | – | binding | binds |

A few entries again:
| Substance | target or system | assay | setting | quantity | result |
| --- | --- | --- | --- | --- | --- |
| B5 (GET1 21-104) | GET3 D57N, Alexa488 label (Saccharomyces cerevisiae, UniProt Q12154) | FRET | with: nucleotides | binding | binds |
